Literature values that unrelated publications cite.
± gives the spread as reported.

AEQNPIYWARYADWLFTTPLLLLDLALLVDADEGT (pHLIP (Halobacterium salinarum))  pKa (NMR, measured: Asp14; peptide, lipid membrane; numbering of the source): 5.8
human CCL11  IC50 (CCR3 E25A mutant): 0.0119 µM
GSGCCGQGSCCGRWSGMKNIRVLWCGGCC  MIC (Escherichia coli; peptide): > 128 µM
enfortumab vedotin  half-life (mouse ICR SCID): 37 h
YRQSMNNFQGLRSFGCRFGTCTVQKLAHQIYQFTDKDKDNVAPRSKISPQGY (biotin-labelled)  half-life (rat, plasma): 0.25 h
capreomycin  MIC (Mycobacterium tuberculosis; H37Ra; literature value): 8 mg/L
FFFHIIHHIFHLIRRLLHRIRRRRRRHR  MIC (Pseudomonas aeruginosa; peptide): 32 µM
omiganan  MIC (Enterococcus faecalis; KCTC 3511; literature value): 25 µM
cathelicidin-BF  MIC (Escherichia coli): 27 mg/L
evodiamine  IC50 (butyrylcholinesterase; inhibitor): 4.62 µM
melittin  MIC (Pseudomonas aeruginosa; ATCC 27853; literature value): 12.5 µM
LSPAVIASLVG-NH2 (C-amide)  EC50 (ion channel complex, PPK1, PPK26; agonist; peptide): 0.113 µM
bevacizumab  median overall survival (patients with recurrent glioblastoma; dose not given, CheckMate-143 trial): 10 months
cyclopropyl methoxycarbonyl metomidate  EC50 (Xenopus laevis; loss of righting reflex; tadpoles): 2.6 µM
rat amylin  potency decrease (AMY1 receptor, RAMP1 W84A; relative to: wild type): 15 fold
VVIA  viability (PC-12, differentiated; MTT; peptide; 10-fold excess over Aβ42, together with: Aβ42 5 µM; relative to: untreated): 89 ± 5%
DPDPE  Ki (human opioid receptor MOP; binding): > 10 µM
abciximab  patients with anti-drug antibodies (human, percutaneous coronary intervention patients; dose not given): 4.8%
TFELQGVVPRGVNL (V29F)  kcat (Prothrombin (F2, Bos taurus, UniProt P00735); substrate, HPLC; peptide): 6.2 ± 0.4 s⁻¹
YCAQTGCTVNWGRCWGCIGNNSGANYATGGKSGV  MIC (Pseudomonas aeruginosa; peptide): 8 µM
neurotensin  binding affinity decrease (NTS1 deletion of residues 45-60; concentration not given; relative to: wild type): 3000 fold
GTVLCCETCFLLSCCKIGCTCTRVV  MIC (Pseudomonas aeruginosa; peptide): 32 µM
pegcetacoplan  tolerability (cynomolgus monkey; subcutaneous, 7, 28, 140 mg/kg/day daily, 28 days): not toxic
buforin II  MIC (Pseudomonas aeruginosa; ATCC 27853; literature value): 100 µM
VTATNAFNCRKERGFCRFGGCPFPLIHIGKCGPA  MIC (Staphylococcus aureus; peptide): > 128 µM

A few entries again:
LSPAVIASLVG-NH2 (C-amide)  EC50 (ion channel complex, PPK1, PPK26; agonist; peptide): 0.113 µM
bevacizumab  median overall survival (patients with recurrent glioblastoma; dose not given, CheckMate-143 trial): 10 months
cyclopropyl methoxycarbonyl metomidate  EC50 (Xenopus laevis; loss of righting reflex; tadpoles): 2.6 µM
